Measured values gathered from unrelated publications.
Parts stem from different laboratories: compare values within a part only.
UniProt Q13237, sequence (whole entry, looked up): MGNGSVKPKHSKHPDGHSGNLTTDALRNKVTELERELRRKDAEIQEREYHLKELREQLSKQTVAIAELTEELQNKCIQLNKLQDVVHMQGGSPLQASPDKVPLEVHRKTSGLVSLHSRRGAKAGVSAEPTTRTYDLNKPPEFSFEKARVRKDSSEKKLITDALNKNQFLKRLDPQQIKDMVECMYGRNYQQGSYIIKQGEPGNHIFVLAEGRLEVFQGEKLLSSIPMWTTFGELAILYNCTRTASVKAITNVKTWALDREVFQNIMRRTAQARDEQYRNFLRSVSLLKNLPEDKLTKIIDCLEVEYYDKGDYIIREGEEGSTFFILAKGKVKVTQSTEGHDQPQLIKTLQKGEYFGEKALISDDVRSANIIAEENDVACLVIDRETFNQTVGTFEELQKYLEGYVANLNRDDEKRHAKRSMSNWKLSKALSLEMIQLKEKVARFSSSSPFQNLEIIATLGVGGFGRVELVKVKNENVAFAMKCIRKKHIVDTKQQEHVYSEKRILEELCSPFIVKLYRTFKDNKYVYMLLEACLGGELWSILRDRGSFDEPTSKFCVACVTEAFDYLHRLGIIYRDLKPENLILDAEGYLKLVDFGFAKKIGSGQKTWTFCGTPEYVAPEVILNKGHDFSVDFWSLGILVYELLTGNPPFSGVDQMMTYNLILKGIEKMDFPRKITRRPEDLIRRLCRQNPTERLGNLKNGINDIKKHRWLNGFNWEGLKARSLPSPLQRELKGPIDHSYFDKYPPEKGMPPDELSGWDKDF
UniProt P51955, sequence (whole entry, looked up): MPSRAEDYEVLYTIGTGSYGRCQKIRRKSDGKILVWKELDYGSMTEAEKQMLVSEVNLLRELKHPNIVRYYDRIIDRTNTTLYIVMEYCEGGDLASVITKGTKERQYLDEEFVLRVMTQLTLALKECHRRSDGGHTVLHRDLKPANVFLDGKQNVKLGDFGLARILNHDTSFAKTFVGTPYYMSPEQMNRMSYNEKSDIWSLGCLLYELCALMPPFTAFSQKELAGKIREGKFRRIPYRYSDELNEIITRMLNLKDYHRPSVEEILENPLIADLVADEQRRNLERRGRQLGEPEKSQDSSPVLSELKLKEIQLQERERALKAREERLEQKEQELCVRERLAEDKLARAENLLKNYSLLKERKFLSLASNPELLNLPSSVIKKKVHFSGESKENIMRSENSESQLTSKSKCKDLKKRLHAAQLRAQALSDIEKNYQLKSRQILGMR
UniProt Q86Y07, sequence (whole entry, looked up): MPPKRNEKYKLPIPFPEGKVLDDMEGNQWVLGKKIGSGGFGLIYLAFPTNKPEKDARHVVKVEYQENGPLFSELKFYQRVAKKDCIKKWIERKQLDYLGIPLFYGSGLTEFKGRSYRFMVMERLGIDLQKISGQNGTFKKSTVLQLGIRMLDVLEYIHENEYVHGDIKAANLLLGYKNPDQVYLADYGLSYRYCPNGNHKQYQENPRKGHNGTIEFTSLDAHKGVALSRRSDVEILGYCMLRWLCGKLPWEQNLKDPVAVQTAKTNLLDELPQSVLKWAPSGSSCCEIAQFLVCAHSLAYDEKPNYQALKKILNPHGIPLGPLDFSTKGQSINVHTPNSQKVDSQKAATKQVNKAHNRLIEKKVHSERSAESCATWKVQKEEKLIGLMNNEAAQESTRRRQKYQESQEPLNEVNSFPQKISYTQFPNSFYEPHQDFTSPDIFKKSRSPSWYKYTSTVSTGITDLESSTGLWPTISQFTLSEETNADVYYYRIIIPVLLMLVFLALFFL
UniProt P07948, sequence (whole entry, looked up): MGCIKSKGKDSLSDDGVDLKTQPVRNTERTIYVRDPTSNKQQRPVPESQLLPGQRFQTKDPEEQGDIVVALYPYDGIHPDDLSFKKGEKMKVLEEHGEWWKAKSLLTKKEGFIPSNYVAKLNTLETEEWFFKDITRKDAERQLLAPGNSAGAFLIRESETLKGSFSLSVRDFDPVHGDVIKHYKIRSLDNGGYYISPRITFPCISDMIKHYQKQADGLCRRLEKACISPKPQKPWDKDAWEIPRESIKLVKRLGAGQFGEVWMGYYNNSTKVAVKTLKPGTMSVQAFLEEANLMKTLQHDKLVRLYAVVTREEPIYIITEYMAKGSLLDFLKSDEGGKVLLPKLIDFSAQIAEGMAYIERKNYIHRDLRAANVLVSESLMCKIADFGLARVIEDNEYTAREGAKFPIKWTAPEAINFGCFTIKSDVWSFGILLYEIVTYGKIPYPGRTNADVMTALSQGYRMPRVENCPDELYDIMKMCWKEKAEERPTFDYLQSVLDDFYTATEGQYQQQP
UniProt Q9UQ88, sequence (whole entry, looked up): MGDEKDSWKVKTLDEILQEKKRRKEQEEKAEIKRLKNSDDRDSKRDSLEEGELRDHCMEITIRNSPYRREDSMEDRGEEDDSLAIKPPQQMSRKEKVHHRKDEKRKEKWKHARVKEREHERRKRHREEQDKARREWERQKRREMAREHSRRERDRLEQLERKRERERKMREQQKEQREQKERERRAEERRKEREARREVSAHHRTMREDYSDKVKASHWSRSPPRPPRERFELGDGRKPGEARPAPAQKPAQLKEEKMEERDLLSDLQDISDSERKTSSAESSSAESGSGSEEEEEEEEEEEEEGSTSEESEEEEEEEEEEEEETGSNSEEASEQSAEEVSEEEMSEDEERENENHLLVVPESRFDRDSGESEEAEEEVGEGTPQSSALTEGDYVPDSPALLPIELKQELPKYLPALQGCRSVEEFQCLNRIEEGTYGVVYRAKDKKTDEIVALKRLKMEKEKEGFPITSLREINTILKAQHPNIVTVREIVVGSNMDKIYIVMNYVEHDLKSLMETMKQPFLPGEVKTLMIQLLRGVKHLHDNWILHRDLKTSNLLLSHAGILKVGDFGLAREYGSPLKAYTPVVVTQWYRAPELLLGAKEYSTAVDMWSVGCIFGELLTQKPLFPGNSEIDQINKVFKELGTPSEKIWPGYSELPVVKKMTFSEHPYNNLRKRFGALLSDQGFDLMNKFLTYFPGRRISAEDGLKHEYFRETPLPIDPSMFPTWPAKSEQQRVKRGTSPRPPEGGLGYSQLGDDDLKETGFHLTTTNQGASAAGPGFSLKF
UniProt P52564, sequence (whole entry, looked up): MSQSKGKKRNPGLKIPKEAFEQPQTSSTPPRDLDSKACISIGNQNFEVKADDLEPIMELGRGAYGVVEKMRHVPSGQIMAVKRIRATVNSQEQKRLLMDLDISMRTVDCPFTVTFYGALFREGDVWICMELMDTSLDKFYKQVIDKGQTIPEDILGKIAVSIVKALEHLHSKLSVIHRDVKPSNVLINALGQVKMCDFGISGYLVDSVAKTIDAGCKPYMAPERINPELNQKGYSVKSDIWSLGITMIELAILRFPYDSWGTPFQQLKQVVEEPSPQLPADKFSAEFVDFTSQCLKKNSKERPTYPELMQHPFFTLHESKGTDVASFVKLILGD
UniProt P36897, sequence (whole entry, looked up): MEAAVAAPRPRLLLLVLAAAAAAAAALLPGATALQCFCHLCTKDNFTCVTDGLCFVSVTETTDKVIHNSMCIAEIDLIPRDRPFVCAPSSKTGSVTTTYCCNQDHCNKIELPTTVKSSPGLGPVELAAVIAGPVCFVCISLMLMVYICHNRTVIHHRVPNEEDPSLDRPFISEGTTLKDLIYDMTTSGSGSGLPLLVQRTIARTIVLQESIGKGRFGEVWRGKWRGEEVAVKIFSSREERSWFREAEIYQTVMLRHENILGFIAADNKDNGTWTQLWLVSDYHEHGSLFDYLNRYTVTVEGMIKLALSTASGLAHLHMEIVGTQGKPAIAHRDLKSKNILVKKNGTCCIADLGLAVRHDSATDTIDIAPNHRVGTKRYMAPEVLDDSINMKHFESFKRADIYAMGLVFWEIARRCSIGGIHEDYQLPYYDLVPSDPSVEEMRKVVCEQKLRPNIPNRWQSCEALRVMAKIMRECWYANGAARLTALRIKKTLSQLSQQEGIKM
UniProt P35626, sequence (whole entry, looked up): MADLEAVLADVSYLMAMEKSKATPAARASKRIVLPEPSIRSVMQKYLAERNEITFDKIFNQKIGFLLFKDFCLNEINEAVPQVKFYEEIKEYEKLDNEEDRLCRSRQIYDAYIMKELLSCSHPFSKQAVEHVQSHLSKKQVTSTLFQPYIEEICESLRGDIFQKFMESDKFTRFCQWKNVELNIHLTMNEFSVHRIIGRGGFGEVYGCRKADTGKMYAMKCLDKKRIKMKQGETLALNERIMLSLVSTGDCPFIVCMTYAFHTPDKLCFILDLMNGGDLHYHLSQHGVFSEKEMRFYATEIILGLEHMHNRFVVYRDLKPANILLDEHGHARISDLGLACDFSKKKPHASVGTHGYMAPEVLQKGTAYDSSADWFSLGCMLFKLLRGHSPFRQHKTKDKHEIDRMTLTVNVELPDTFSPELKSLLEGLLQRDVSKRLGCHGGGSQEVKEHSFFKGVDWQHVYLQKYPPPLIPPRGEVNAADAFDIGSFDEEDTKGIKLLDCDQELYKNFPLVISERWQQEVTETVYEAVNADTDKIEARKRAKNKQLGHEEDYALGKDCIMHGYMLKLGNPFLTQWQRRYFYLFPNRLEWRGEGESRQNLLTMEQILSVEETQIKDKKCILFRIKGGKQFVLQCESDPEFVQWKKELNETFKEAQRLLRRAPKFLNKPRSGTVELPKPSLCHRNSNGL

Set 1 — concentration: 1 µM
Compound: CC(=O)Nc1c(C(C)=O)c(=O)n(C)c2nc(-c3ccc(Cl)cc3Cl)c(-c3ccc(Cl)cc3)cc12
For Tyrosine-protein kinase ABL1, phosphorylated (ABL1, Homo sapiens, UniProt P00519); cell-free assay, competition with immobilised ligand: remaining binding read 81%.
It gave 100% for remaining binding (Serine/threonine-protein kinase VRK2 (VRK2, Homo sapiens, UniProt Q86Y07); cell-free assay, competition with immobilised ligand).
It gave 91% for remaining binding (Receptor tyrosine-protein kinase erbB-4 (ERBB4, Homo sapiens, UniProt Q15303); cell-free assay, competition with immobilised ligand).
The remaining binding was 97% (Homeodomain-interacting protein kinase 3 (HIPK3, Homo sapiens, UniProt Q9H422); cell-free assay, competition with immobilised ligand).
It gave 100% for remaining binding (Dual specificity mitogen-activated protein kinase kinase 6 (MAP2K6, Homo sapiens, UniProt P52564); cell-free assay, competition with immobilised ligand).
The remaining binding was 100% (Epidermal growth factor receptor (EGFR, Homo sapiens, UniProt P00533, L858R/T790M); cell-free assay, competition with immobilised ligand).
It gave 100% for remaining binding (Serine/threonine-protein kinase SIK1 (SIK1, Homo sapiens, UniProt P57059); competition binding).
The remaining binding was 100% (Tyrosine-protein kinase Tec (TEC, Homo sapiens, UniProt P42680); cell-free assay, competition with immobilised ligand).
For Proto-oncogene tyrosine-protein kinase receptor Ret (RET, Homo sapiens, UniProt P07949, M918T); cell-free assay, competition with immobilised ligand: remaining binding read 100%.
Cyclin-dependent kinase 11A (CDK11A, Homo sapiens, UniProt Q9UQ88); binding, competition with immobilised ligand — remaining binding: 100%.
The remaining binding was 82% (Receptor-type tyrosine-protein kinase FLT3 (FLT3, Homo sapiens, UniProt P36888, D835V); cell-free assay, competition with immobilised ligand).
For Serine/threonine-protein kinase TNNI3K (TNNI3K, Homo sapiens, UniProt Q59H18); cell-free assay, competition with immobilised ligand: remaining binding read 100%.
The remaining binding was 100% (cGMP-dependent protein kinase 2 (PRKG2, Homo sapiens, UniProt Q13237); cell-free assay, competition with immobilised ligand).
It gave 100% for remaining binding (MAP kinase-activated protein kinase 2 (MAPKAPK2, Homo sapiens, UniProt P49137); cell-free assay, competition with immobilised ligand).

Set 2 — method: RNA Bind-n-Seq; form: RNA; medium: in vitro; concentration: 1 µM; notes: whole 134-nt RNA, ends assumed; together with: 150 mM KCl; relative to: input library; reading: higher = stronger binding
Target: Ras GTPase-activating protein-binding protein 1, RRM domain (G3BP1, Homo sapiens, UniProt Q13283)
UniProt Q13283, sequence (whole entry, looked up): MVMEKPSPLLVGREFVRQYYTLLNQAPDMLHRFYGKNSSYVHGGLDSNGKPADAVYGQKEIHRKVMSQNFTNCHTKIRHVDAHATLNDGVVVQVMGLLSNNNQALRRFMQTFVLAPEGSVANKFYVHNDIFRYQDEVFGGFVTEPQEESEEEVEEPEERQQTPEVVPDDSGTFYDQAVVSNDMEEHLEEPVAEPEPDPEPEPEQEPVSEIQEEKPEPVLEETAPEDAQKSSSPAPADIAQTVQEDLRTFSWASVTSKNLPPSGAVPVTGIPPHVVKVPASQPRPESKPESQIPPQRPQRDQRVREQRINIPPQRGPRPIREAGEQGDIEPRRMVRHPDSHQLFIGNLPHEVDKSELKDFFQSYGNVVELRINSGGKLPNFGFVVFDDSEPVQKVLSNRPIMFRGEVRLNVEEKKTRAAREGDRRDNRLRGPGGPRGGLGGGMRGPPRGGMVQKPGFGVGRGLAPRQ
All sequences stand within: GGGAGUUCUACAGUCCGACGAUC … UGGAAUUCUCGGGUGUCAAGG
`GCAGGAAGUAAAAACAAAUGGAAAUGCUUCGGAUAGUGGCAGGGGUGGGGGUUGCUAAGGAAAGGGUGGGAUGGGAGUGGGUAAUGAGUU` has a log2 enrichment of 0.983.
For `ACCAUGCAGGUGGGCAUCUUUGGGAAGUGGGGCAAGGGGGGGAUAGGGAGGGGGGUAACAUUUUGGGAACAGGUGGUCCCAGGUCGUUUC`, the log2 enrichment was 0.849.
For `CUGUGCUACACAUCGUAUGUACCGAAUCGGGGUUUUUGGGGAAAAAGGGGAAAAAAAGGGGAAAGUAUUAUGUUACGCCGUUCGGAUCUG`, the log2 enrichment was 0.935.
With `CCUGUGCUACACAUCGUAUGUACCGAAUCGGGGAGGGGUUUUUUUGGGGUUUUUUUGGGGAAAGUAUUAUGUUACGCCGUUCGGAUCUGC` the log2 enrichment was 0.423.
The log2 enrichment of `AGUCCUGUGCUACACAUCGUAUGUACCGAAUCGGGAAAAAGGGUUUGGGAAAAAGGGAAAGUAUUAUGUUACGCCGUUCGGAUCUGCACU` is reported as 0.195.
`AGUCCUGUGCUACACAUCGUAUGUACCGAAUCGGUUUUUGGAAAAAAAGGAAAAAGGAAAGUAUUAUGUUACGCCGUUCGGAUCUGCACU` gave a log2 enrichment of -0.297.
`UUGUUUGAAACAGCAACGCUUCGGUCAGGGUAUCUUUUACCAGACACUAAAGCAUAUGGAGAUAGAAUAGAAAGAAUGCUUCGCCUCAGU` has a log2 enrichment of -0.165.
The log2 enrichment of `UAACUUUAGAGGAGCAUCUGAUGGAUAUGGCAGUGGACGUGGAUUUGGGGAUGGCUAUAAUGGGUAUGGAGGAGGACCUGGAGGUGGCAA` is reported as -0.548.

Set 3 — method: protein-binding microarray; form: double-stranded DNA, one strand shown; medium: in vitro; concentration: 250 nM; notes: 60-bp whole probe; together with: salmon DNA 0.4 mg/ml; relative to: random background probes; reading: higher = stronger binding; all sequences stand within: GCCTAGCAC … GTCTTGATTCGCTTGACGCTGCTG
Target: Interferon regulatory factor 7, full length, phosphomimetic (IRF7, Homo sapiens, UniProt Q92985, residues 1-503, S101K/S471D/S472D/S475D/S476D/S477D/S483D/S484D/S487D)
Residues (chain): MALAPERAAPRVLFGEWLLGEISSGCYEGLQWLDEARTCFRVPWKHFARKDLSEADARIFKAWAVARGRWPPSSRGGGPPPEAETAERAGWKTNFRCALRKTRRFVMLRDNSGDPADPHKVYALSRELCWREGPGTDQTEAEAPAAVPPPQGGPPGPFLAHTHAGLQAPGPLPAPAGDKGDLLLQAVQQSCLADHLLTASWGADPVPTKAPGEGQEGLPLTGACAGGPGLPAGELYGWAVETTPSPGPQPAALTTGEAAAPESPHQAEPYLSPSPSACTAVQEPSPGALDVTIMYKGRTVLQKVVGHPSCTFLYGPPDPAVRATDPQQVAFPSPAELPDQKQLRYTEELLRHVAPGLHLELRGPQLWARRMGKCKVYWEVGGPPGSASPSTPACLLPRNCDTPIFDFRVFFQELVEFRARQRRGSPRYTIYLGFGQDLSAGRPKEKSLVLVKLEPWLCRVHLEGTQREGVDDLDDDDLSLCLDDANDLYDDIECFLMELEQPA
For `GACGATATAGGGACTGGAGACGTGCTA`, the log fluorescence was -0.331 z-score.
For `GACGGACTGCATTTCCTGACGTGCTAG`, the log fluorescence was -0.139 z-score.
`CTGCAGCCCACTCCTGAACAGTGCTAG` has a log fluorescence of -1 z-score.
`GACGGACTGCTTATCTTGACGTGCTAG` gave a log fluorescence of -0.554 z-score.
The log fluorescence of `GACGGACTGTTTCTCCTGACGTGCTAG` is reported as 0.42 z-score.
The log fluorescence of `GACGATATCAGTCTCGAGAGGTGCTAG` is reported as -0.215 z-score.
The log fluorescence of `GACGGTATCGGGTTTCGGGCCGTGCTA` is reported as 2.04 z-score.
With `TTACGTATCCTACTGCTTTAGTGCTAG` the log fluorescence was 0.321 z-score.

Set 4 — Compound: CCN1/C(=C/C(C)=O)Sc2ccc(OC)cc21; read-out: enzyme activity; action: inhibitor; concentration: 0.5 µM; relative to: control
For Mitogen-activated protein kinase 9 (MAPK9, Homo sapiens, UniProt P45984): remaining activity read 101%.
It gave 99% for remaining activity (Inhibitor of nuclear factor kappa-B kinase subunit epsilon (IKBKE, Homo sapiens, UniProt Q14164)).
For Tyrosine-protein kinase Lyn, isoform B (LYN, Homo sapiens, UniProt P07948): remaining activity read 94.4%.
For cAMP-dependent protein kinase catalytic subunit alpha (PRKACA, Homo sapiens, UniProt P17612): remaining activity read 98%.
The remaining activity was 68.7% (Protein kinase C alpha type (PRKCA, Homo sapiens, UniProt P17252)).
For G protein-coupled receptor kinase 3 (GRK3, Homo sapiens, UniProt P35626): remaining activity read 82.9%.
Calcium/calmodulin-dependent protein kinase type II subunit delta (CAMK2D, Homo sapiens, UniProt Q13557) — remaining activity: 92.2%.
For Serine/threonine-protein kinase Nek2 (NEK2, Homo sapiens, UniProt P51955): remaining activity read 97.6%.
For Calcium/calmodulin-dependent protein kinase kinase 2 (CAMKK2, Homo sapiens, UniProt Q96RR4): remaining activity read 95.5%.
For TGF-beta receptor type-2 (TGFBR2, Homo sapiens, UniProt P37173): remaining activity read 78.5%.
It gave 99.4% for remaining activity (Protein kinase C beta type, isoform beta-I (PRKCB, Homo sapiens, UniProt P05771)).
TGF-beta receptor type-1 (TGFBR1, Homo sapiens, UniProt P36897) — remaining activity: 94.2%.
The remaining activity was 96.8% (Serine/threonine-protein kinase 10 (STK10, Homo sapiens, UniProt O94804)).

Some of these lines once more (set 3):
With `TTACGTATCCTACTGCTTTAGTGCTAG` the log fluorescence was 0.321 z-score.
The log fluorescence of `GACGGTATCGGGTTTCGGGCCGTGCTA` is reported as 2.04 z-score.
For `GACGGACTGCATTTCCTGACGTGCTAG`, the log fluorescence was -0.139 z-score.
The log fluorescence of `GACGGACTGTTTCTCCTGACGTGCTAG` is reported as 0.42 z-score.
